Measured values pooled from the literature.
Protocols differ between the studies behind these lines. ± gives the spread as reported.

For `COc1cc2c(Oc3ccc4[nH]c(C)cc4c3F)ccnc2cc1OCC1(N)CC1`, “grade 1 or 2 Proteinuria” read 25% (paediatric recurrent refractory sarcoma; 10 mg).
`COc1ccnc(C(=O)N[C@H]2COC(=O)[C@H](Cc3ccccc3)[C@@H](OC(=O)C(C)C)[C@H](C)OC2=O)c1OCOC(=O)C(C)C` gave an NOAEL of 177 mg/kg/day (maternal toxicity, body weight loss; rabbit).
Under “patients with cough”, `O=C1Nc2cc3[nH]nc(-c4ccncc4)c3cc2CN1Cc1ccccc1` is recorded as 33% (CTCAE v4.03; advanced solid tumour patients; intravenous, 3.6 mg/kg, schedules 1/2).
`CCCCCCCCCCCCCCCC(=O)N[C@@H](CCC(=O)NCCCC[C@H](NC(=O)[C@H](CC(=O)O)NC(=O)[C@H](CO)NC(=O)[C@@H](NC(=O)[C@H](Cc1ccccc1)NC(=O)[C@@H](NC(=O)CNC(=O)[C@H](CCC(N)=O)NC(=O)[C@H](CO)NC(=O)[C@@H](N)Cc1c[nH]cn1)[C@@H](C)O)[C@@H](C)O)C(=O)N[C@@H](CO)C(=O)N[C@@H](CCC(=O)O)C(=O)N[C@@H](Cc1ccc(O)cc1)C(=O)N[C@@H](CC(C)C)C(=O)N[C@@H](CC(=O)O)C(=O)N[C@@H](CO)C(=O)N[C@@H](CCC(=O)O)C(=O)N[C@@H](CCCNC(=N)N)C(=O)N[C@@H](C)C(=O)N[C@@H](CCCNC(=N)N)C(=O)N[C@@H](CC(=O)O)C(=O)N[C@@H](Cc1ccccc1)C(=O)N[C@H](C(=O)N[C@@H](C)C(=O)N[C@@H](Cc1c[nH]c2ccccc12)C(=O)N[C@@H](CC(C)C)C(=O)N[C@@H](CCC(=O)O)C(=O)N[C@@H](C)C(=O)NCC(=O)NCC(=O)O)C(C)C)C(=O)O` — result for “treatment-related adverse events”: 18.2% (measured: Vomiting; humans CrCl 30 to 45 mL/min; subcutaneous, 100 µg single dose).
`CSCC[C@H](NC(=O)[C@@H](N)Cc1ccc(O)cc1)C(=O)N[C@@H](Cc1ccccc1)C(=O)N[C@@H](CO)C(=O)N1CCC[C@H]1C(=O)N[C@H](C(=O)N[C@@H](Cc1c[nH]cn1)C(=O)N[C@@H](CCC(N)=O)C(=O)N[C@@H](Cc1ccccc1)C(=O)O)[C@@H](C)O` has an IC50 of 1.47 µM (HLA class I histocompatibility antigen, A alpha chain, allele A*02:01 (Homo sapiens, UniProt P04439); binding).
`C[C@@H]1OC(=O)NN=C1c1ccc(-c2ccc(F)cc2)c(C(F)(F)F)c1` — result for “patients with adverse event”: 20% (phase I trial, measured: Diarrhoea all grades; human patients; dose not given, all dose groups).
`CC(C)CC(=O)OC[C@H]1O[C@@](C#N)(c2ccc3c(N)ncnn23)[C@H](O)[C@@H]1O`: DNA damage “negative” (comet; Sprague-Dawley rat, stomach and liver cells; oral, dose not given, twice daily for two days).
For `CO[C@H]1C[C@@H]2CC[C@@H](C)[C@@](O)(O2)C(=O)C(=O)N2CCCC[C@H]2C(=O)O[C@H]([C@H](C)C[C@@H]2CC[C@@H](OC(=O)NCCOCCOCCOCCOCCOCCOCCOCCOCCC(=O)N3CCc4cc(Cn5nc(-c6ccc7oc(N)nc7c6)c6c(N)ncnc65)ccc4C3)[C@H](OC)C2)C[C@@H](O)[C@H](C)/C=C(\C)[C@@H](O)[C@@H](OC)C(=O)[C@H](C)C[C@H](C)/C=C/C=C/C=C/1C`, the dysgeusia incidence was 0% (patients with advanced solid tumours; intravenous, 6 mg weekly, grade 3 or higher).
The relative abundance of `C[C@H]1CN(c2n[nH]c3nc(N[C@H]4CC[C@H](NS(=O)(=O)CCC(F)(F)F)CC4)ncc23)CCO1` is reported as 0.76 (PRKACA (Homo sapiens, UniProt P17612); inhibitor, Kinobeads competition profiling; 0.16 µM; relative to: vehicle).
`CCC[C@@](N)(CO)CCc1ccc(OCCCCCC(C)C)cc1` gave a half-life of 12.8 h (dog, male hounds, plasma; oral capsule, 2.5 mg/kg, median).
`NC(=O)[C@H]1CCN(c2ncnc(N)c2F)C[C@@H]1N1CCC[C@@H](Nc2cc(Cl)cc(C(F)(F)F)c2)C1=O` — result for “grade ≥3 hyponatraemia”: 0% (B-cell malignancy patients; oral, 20.5 mg twice daily, dose).
`CN1CC[C@@H](c2c(O)cc(O)c3c(=O)cc(-c4ccc(C(F)(F)F)cc4Cl)oc23)[C@@H]1CO` — result for “patients with adverse event”: 0% (measured: Anemia; relapsed AML; oral, 100 mg, grade 3-4, intermittent dosing).
`CC(C)C[C@H](NC(=O)[C@H](CCCCN)NC(=O)OCC1c2ccccc2-c2ccccc21)C(=O)N[C@H](C(=O)N[C@@H](Cc1ccccc1)C(=O)N[C@@H](Cc1ccccc1)C(=O)N[C@@H](CCCCN)C(=O)NCC(=O)N[C@@H](Cc1ccccc1)C(=O)N[C@@H](C)C(=O)N[C@@H](Cc1c[nH]c2ccccc12)C(=O)N[C@@H](CC(N)=O)C(=O)N[C@H](C(=O)N[C@H]1CSSC[C@@H](C(=O)N[C@@H](Cc2c[nH]cn2)C(=O)N[C@@H](CCCNC(=N)N)C(=O)N[C@@H](CCCNC(=N)N)C(=O)N[C@@H](C)C(=O)N[C@@H](CC(N)=O)C(N)=O)NC(=O)[C@H](C(C)C)NC(=O)[C@H](CCCNC(=N)N)NC(=O)[C@H](C(C)C)NC(=O)CNC(=O)[C@H](CC(N)=O)NC(=O)[C@H](CCCNC(=N)N)NC(=O)[C@H](Cc2ccc(O)cc2)NC(=O)[C@H](C(C)C)NC1=O)C(C)C)C(C)C` gave a phosphorus of 3.31 ± 0.12 mmol/L (ICR mice, serum; intraductal mammary, 5 mg/kg, day 5).
Under “grade ≥3 Neutropenia incidence”, `CCN1[C@@H](C(=O)NC23CCC(C(=O)O)(CC2)CC3)[C@H](c2cccc(Cl)c2F)[C@]2(C(=O)Nc3cc(Cl)ccc32)C12CCCCC2` is recorded as 0% (patients with advanced solid tumours; oral, 200 mg).
`CC1(C)[C@H](C=C(Cl)Cl)[C@H]1C(=O)OCc1cccc(Oc2ccccc2)c1`: “enzyme contribution to clearance” 0.04% (measured: CYP2C8; human, age 1 year, recombinant human CYP2C8; 0.1 µM).
`C[C@]1(CO)Cc2ncn(-c3ccc(C#N)c(Cl)c3)c2C(=O)O1` — result for “subjects with drug-related headache”: 0% (human; 3 mg multiple doses, fasted).
For `CSCC[C@H](NC(=O)[C@H](C)N)C(=O)N[C@@H](Cc1ccc(O)cc1)C(=O)NCC(=O)N[C@@H](CCCNC(=N)N)C(=O)N[C@@H](CO)C(=O)N[C@@H](CC(C)C)C(=O)N[C@@H](CCC(N)=O)C(=O)N[C@@H](Cc1ccccc1)C(=O)O`, the IC50 was 5.58 µM (HLA class I histocompatibility antigen, A alpha chain, allele A*24:02 (Homo sapiens, UniProt P04439); binding).

Some of these lines once more:
For `COc1cc2c(Oc3ccc4[nH]c(C)cc4c3F)ccnc2cc1OCC1(N)CC1`, “grade 1 or 2 Proteinuria” read 25% (paediatric recurrent refractory sarcoma; 10 mg).
`COc1ccnc(C(=O)N[C@H]2COC(=O)[C@H](Cc3ccccc3)[C@@H](OC(=O)C(C)C)[C@H](C)OC2=O)c1OCOC(=O)C(C)C` gave an NOAEL of 177 mg/kg/day (maternal toxicity, body weight loss; rabbit).
Under “patients with cough”, `O=C1Nc2cc3[nH]nc(-c4ccncc4)c3cc2CN1Cc1ccccc1` is recorded as 33% (CTCAE v4.03; advanced solid tumour patients; intravenous, 3.6 mg/kg, schedules 1/2).
